Values quoted from earlier work that unrelated publications cite.
Numbered parts are unrelated; values within a part may stem from several laboratories. Numbers after ± are the reported error.
Chain of UniProt Q08210 (whole entry, looked up): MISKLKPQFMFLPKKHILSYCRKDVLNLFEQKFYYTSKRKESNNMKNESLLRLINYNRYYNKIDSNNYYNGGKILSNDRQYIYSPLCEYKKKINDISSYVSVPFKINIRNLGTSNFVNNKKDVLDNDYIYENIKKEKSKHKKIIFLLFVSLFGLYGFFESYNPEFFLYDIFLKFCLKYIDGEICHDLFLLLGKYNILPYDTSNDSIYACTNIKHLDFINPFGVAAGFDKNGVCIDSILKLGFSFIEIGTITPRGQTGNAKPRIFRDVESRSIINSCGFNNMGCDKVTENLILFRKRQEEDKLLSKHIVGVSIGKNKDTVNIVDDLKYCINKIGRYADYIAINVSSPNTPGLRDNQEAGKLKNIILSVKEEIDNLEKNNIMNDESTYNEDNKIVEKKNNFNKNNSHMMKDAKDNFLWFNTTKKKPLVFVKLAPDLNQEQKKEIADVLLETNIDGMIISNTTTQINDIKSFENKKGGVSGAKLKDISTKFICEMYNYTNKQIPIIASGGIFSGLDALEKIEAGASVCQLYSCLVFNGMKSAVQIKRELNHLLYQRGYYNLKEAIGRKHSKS

Sample 1 — organism: Cryptosporidium parvum; technique: high-throughput screen; tested at: concentration not given
`O=C(O)c1cc(-c2ccc(F)cc2F)ccc1O`: activity “inactive”.
`COc1ccc(C(=O)NCc2ccc(OCCN(C)C)cc2)cc1OC.Cl`: activity “inactive”.
For `CN(C)CCCN1c2ccccc2CCc2ccccc21`, activity read “inactive”.

Other studies, line by line
`CCCOc1ccc([C@H]2[C@H](C(=O)O)[C@@H](c3ccc4c(c3)OCO4)CN2CC(=O)Nc2c(CC)cccc2CC)cc1` has an IC50 of 4.5 nM (EDNRB; biochemical).
`O=C(Cn1ccnc1[N+](=O)[O-])NCc1ccccc1` has an IC50 of 3700 nM (Trypanosoma cruzi; parasite growth; rat L6E9 myoblasts, amastigote).
The IC50 of `CC(=O)Nc1c(C(C)=O)c(=O)n(C)c2nc(-c3ccc(Cl)cc3Cl)c(-c3ccc(Cl)cc3)cc12` is reported as 1340 nM (ALOX5; off-target panel).
`Cc1cc(Nc2ccc(C(C)(C)C)c(F)c2)n2ncnc2n1` gave an IC50 of 64 ± 3.5 nM (Dihydroorotate dehydrogenase (quinone), mitochondrial (PFF0160c, Plasmodium falciparum, UniProt Q08210); enzyme activity, inhibitor).
The Ki of `C[C@@H](c1cccc(C#N)c1)n1cc(Cl)cc(C(N)=O)c1=N` is reported as 130 nM (ADRA1D).
`CN(C)CC#Cc1ccc(OCCCc2sc(N3CCc4cccc(C(=O)Nc5nc6ccccc6s5)c4C3)nc2C(=O)O)c(F)c1` gave an effective concentration of about 100 nM (primary colorectal cancer spheroids; cell growth).

For quick reference, copied from above (other studies, line by line):
`CCCOc1ccc([C@H]2[C@H](C(=O)O)[C@@H](c3ccc4c(c3)OCO4)CN2CC(=O)Nc2c(CC)cccc2CC)cc1` has an IC50 of 4.5 nM (EDNRB; biochemical).
